Published values from different studies.
Protocols differ between the studies behind these lines. ± gives the spread as reported.

Structure (SMILES) = COc1c(O)c(C)cc2c1C(=O)c1c(cc(O)c(O)c1O)C2=O; target or system = HK-2 co-cultured with HepaRG; assay = MTT; setting = 33.33 µM, 48 h; scale = baseline: untreated control; endpoint = viability; value = 87.7 ± 4.03%
Structure (SMILES) = Cn1cc(-c2ccc(-c3cncc(Cl)c3N3CCC4(CCNC4=O)CC3)cc2)cn1; target or system = COLO 205; assay = gene expression, microarray, refers to: CD55 mRNA; setting = concentration not given, 6 h; scale = baseline: untreated cells; endpoint = log2 fold change; value = 1.56
Structure (SMILES) = NCC(=O)Nc1cncc(-c2nn3c(=O)cc(N4CCNCC4)nc3s2)c1; assay = ADP-induced platelet aggregation, light transmission aggregometry; system = human, stable CAD on aspirin, platelets ex vivo; setting = subcutaneous, 0.075 mg/kg, 360 min post-dose, with: ADP 20 µM; endpoint = median inhibition; value = 9.05%
Structure (SMILES) = C[C@H]1C[C@H]2CSC(N)=N[C@@]2(c2nc(NC(=O)c3ccc(OC(F)F)cn3)cs2)CO1; assay = refers to: Aβ1-40; system = healthy adults, plasma; setting = 540 mg single dose, 6 h post-dose; scale = baseline: placebo; endpoint = percent change from baseline; value = -86.9%
Structure (SMILES) = CN[C@@H]1COc2c(S(=O)(=O)NC(=O)Nc3c4c(cc5c3CCC5)CCC4)cnn2C1; assay = refers to: IL-1β; system = human participants, whole blood ex vivo; setting = 300 mg twice daily, multiple doses, 48 h, with: LPS/ATP; scale = baseline: baseline; endpoint = inhibition; value = 97.9%
Structure (SMILES) = COc1cc2c(c(O)c1OC)C(=O)c1c(cc(C)c(O[C@@H]3O[C@H](CO)[C@@H](O)[C@H](O)[C@H]3O)c1OC)C2=O; target or system = HK-2 co-cultured with HepaRG; assay = MTT; setting = 33.33 µM, 48 h; scale = baseline: untreated control; endpoint = cell viability; value = 103 ± 4.54%
Structure (SMILES) = OC(CCN1CCCCC1)(c1ccccc1)C1CC2C=CC1C2 (stereo not drawn); assay = resting-state EEG; system = healthy elderly humans; setting = oral, 4 mg, eyes closed, LS mean; endpoint = EEG Alpha1-power Pz-O1; value = 11 µV²
Structure (SMILES) = CC(C)C[C@H](NC(=O)C[C@H](O)[C@H](CC(C)C)NC(=O)[C@H](Cc1c[nH]cn1)NC(=O)CNC(=O)[C@@H](NC(=O)[C@H](C)NC(=O)[C@H](Cc1c[nH]c2ccccc12)NC(=O)[C@H](CCC(N)=O)NC(=O)[C@@H](Cc1ccccc1)NC(=O)COCCOCCNC(=O)CCC(C(=O)O)N1CCN(CC(=O)O)CCN(CC(=O)O)CCN(CC(=O)O)CC1)C(C)C)C(N)=O (stereo partly drawn) [lutetium-177 labelled]; system = BALB/c nu/nu mice, muscle; setting = intravenous, 500 pmol, 1 h, with: PA 300 µg; endpoint = tissue uptake; value = 0.09 ± 0.04 %ID/g
Structure (SMILES) = O=C(O)CNC(=O)Cc1ccccc1; system = ventricular cardiomyocytes, C57BL/6 mouse; setting = dose not given, 0.088 s; endpoint = sarcomere length; value = 1.72 µm
Structure (SMILES) = CCN1CCN(Cc2ccc(Nc3ncc(F)c(-c4cc(F)c5nc6n(c5c4)[C@H](C)CCC6)n3)nc2)CC1; system = human advanced solid tumours; setting = 300 mg, phase Ia monotherapy RECIST 1.1; endpoint = median progression-free survival; value = 7.3 months
Structure (SMILES) = N#Cc1ccn2c(-c3ccncc3)c(-c3ccc(F)cc3)nc2c1; assay = kinase binding, competitor, MIB/MS competition, refers to: TPK2; system = Candida albicans cell lysate; setting = 10 µM; scale = baseline: DMSO; endpoint = log2 fold change; value = -0.0553
Structure (SMILES) = CC(C)NCC(O)c1ccc(O)c(O)c1 (stereo not drawn); system = ventricular cardiomyocytes, C57BL/6 mouse; setting = dose not given, 0.084 s; endpoint = sarcomere length; value = 1.72 µm

Excerpt of the above:
Structure (SMILES) = CC(C)C[C@H](NC(=O)C[C@H](O)[C@H](CC(C)C)NC(=O)[C@H](Cc1c[nH]cn1)NC(=O)CNC(=O)[C@@H](NC(=O)[C@H](C)NC(=O)[C@H](Cc1c[nH]c2ccccc12)NC(=O)[C@H](CCC(N)=O)NC(=O)[C@@H](Cc1ccccc1)NC(=O)COCCOCCNC(=O)CCC(C(=O)O)N1CCN(CC(=O)O)CCN(CC(=O)O)CCN(CC(=O)O)CC1)C(C)C)C(N)=O (stereo partly drawn) [lutetium-177 labelled]; system = BALB/c nu/nu mice, muscle; setting = intravenous, 500 pmol, 1 h, with: PA 300 µg; endpoint = tissue uptake; value = 0.09 ± 0.04 %ID/g
